Experimental data of several laboratories.
Target: Amine oxidase [flavin-containing] A (MAOA, Homo sapiens, UniProt P21397)
UniProt P21397, sequence (whole entry, looked up): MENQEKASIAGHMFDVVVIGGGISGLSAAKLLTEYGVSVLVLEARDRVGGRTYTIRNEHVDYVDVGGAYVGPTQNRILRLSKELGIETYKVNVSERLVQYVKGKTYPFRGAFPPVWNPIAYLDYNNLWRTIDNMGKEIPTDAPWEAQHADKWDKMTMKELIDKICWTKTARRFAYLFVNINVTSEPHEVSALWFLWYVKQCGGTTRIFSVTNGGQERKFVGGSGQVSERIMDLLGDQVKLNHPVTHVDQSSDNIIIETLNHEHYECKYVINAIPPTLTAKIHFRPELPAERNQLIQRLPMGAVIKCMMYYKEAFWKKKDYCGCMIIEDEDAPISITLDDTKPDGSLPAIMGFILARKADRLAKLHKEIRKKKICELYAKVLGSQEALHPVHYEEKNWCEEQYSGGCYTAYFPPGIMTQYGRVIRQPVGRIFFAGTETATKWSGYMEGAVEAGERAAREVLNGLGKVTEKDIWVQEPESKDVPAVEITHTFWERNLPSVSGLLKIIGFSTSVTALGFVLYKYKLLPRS
Read-out: enzyme activity
Mode: inhibitor

With `S=C(N/N=C/c1cccc(OCc2ccccc2)c1)Nc1ccccc1` the IC50 was 4.49 µM (absorbance).
For `O=C1c2ccccc2N(Cc2cccc(Cl)c2)C12CCCC2`, the IC50 was 8.95 µM.
For `COC(=O)c1ccc(-n2nc(-c3ccccc3O)nc2-c2ccccc2O)cc1`, the IC50 was 33.6 µM (fluorescence).
For `O=C(/C=C/c1ccc(O)cc1)c1ccc(N2CCNCC2)cc1`, the IC50 was 30.1 µM (with preincubation).
With `NC(=O)N/N=C/c1ccc(OCc2ccccc2)cc1` the IC50 was over 40 µM (absorbance).
The IC50 of `O=C(/C=C/c1ccccc1)c1ccc(N2CCNCC2)cc1` is reported as over 40 µM (with preincubation).
With `O=C(/C=C/c1ccc(F)cc1)c1cc2ccccc2oc1=O` the IC50 was over 40 µM.
With `CN(C)c1ccc(/C=C/C(=O)c2ccc(N3CCNCC3)cc2)cc1` the IC50 was 34.1 µM (with preincubation).
The IC50 of `NC(=O)N/N=C/c1ccccc1OCc1ccccc1` is reported as over 40 µM (absorbance).
The IC50 of `O=C(Cc1ccccc1Nc1c(Cl)cccc1Cl)NNC(=S)Nc1ccc(Cl)c(Cl)c1` is reported as 20.3 µM (fluorescence).
The IC50 of `CNC(=S)N/N=C/c1ccc(OCc2cccc(F)c2)cc1` is reported as over 40 µM (absorbance).
`O=C1c2cc(F)ccc2N(Cc2ccccc2)C12CCCC2` gave an IC50 of 31.1 µM.
The IC50 of `O=c1ccoc2ccc(OCCCCCN3CCCCCC3)cc12` is reported as 30.1 µM (fluorescence).
`N#Cc1ccc(C2=Nn3c(nnc3-c3ccc(-n4nc(-c5ccccc5O)nc4-c4ccccc4O)cc3)SC2)cc1` gave an IC50 of 55.9 µM (fluorescence).
For `NC(=O)N/N=C/c1ccc(OCc2cccc(F)c2)cc1`, the IC50 was 8.44 µM (absorbance).
The IC50 of `COc1ccc(C2=Nn3c(nnc3-c3ccc(-n4nc(-c5ccccc5O)nc4-c4ccccc4O)cc3)SC2)cc1` is reported as 2.91 µM (fluorescence).
`O=C1c2ccccc2N(Cc2ccccc2)C12CCCC2` gave an IC50 of over 40 µM.
`CCS(=O)(=O)N1CCN(CC(=O)Nc2ccc(/C=C/C(=O)c3ccc(OC)c(OC)c3)cc2)CC1` has an IC50 of over 1000 µM (fluorescence).
`CCc1ccc(/C=C/C(=O)c2ccc(N3CCNCC3)cc2)cc1` gave an IC50 of 35.6 µM (with preincubation).
The IC50 of `CNC(=S)N/N=C/c1ccccc1OCc1ccccc1` is reported as over 40 µM (absorbance).
`O=C(/C=C/c1ccc(Cl)cc1)c1cc2ccccc2oc1=O` gave an IC50 of over 40 µM.
`Oc1ccccc1C1=Nn2c(nnc2-c2ccc(-n3nc(-c4ccccc4O)nc3-c3ccccc3O)cc2)SC1` has an IC50 of 4.71 µM (fluorescence).
`NC(=S)N/N=C/c1ccc(OCc2cccc(F)c2)cc1` gave an IC50 of 9.76 µM (absorbance).
For `O=C1c2cc(F)ccc2NC12CCCC2`, the IC50 was 30.7 µM.
For `CNC(=S)N/N=C/c1ccc(OCc2ccccc2)cc1`, the IC50 was over 40 µM (absorbance).
`CC(=O)C1=C(C)NC(SCCCSc2nnc(Cc3ccccc3Nc3c(Cl)cccc3Cl)n2-c2ccc(Cl)c(Cl)c2)=NC1c1ccc(C)cc1` (centres unmarked) has an IC50 of 2.39 µM (fluorescence).
`O=C1c2cc(Cl)ccc2N(Cc2ccccc2)C12CCCC2` gave an IC50 of 19.2 µM.
The IC50 of `O=C(/C=C/c1ccc(Cl)cc1)c1ccc(N2CCNCC2)cc1` is reported as over 40 µM (with preincubation).
With `O=C(/C=C/c1cccc(F)c1)c1cc2ccccc2oc1=O` the IC50 was over 40 µM.
With `NNC(=O)c1ccc(-n2nc(-c3ccccc3O)nc2-c2ccccc2O)cc1` the IC50 was 10.1 µM (fluorescence).
`O=C(/C=C/c1cccc(Cl)c1)c1cc2ccccc2oc1=O` gave an IC50 of over 40 µM.
`COc1cc(/C=C/C(=O)NC(C)C(N)=O)ccc1OCc1ccccc1` (centres unmarked) gave an IC50 of 89.5 µM (fluorescence).

Repeated from above:
The IC50 of `CNC(=S)N/N=C/c1ccc(OCc2cccc(F)c2)cc1` is reported as over 40 µM (absorbance).
`O=C1c2cc(F)ccc2N(Cc2ccccc2)C12CCCC2` gave an IC50 of 31.1 µM.
The IC50 of `O=c1ccoc2ccc(OCCCCCN3CCCCCC3)cc12` is reported as 30.1 µM (fluorescence).
`N#Cc1ccc(C2=Nn3c(nnc3-c3ccc(-n4nc(-c5ccccc5O)nc4-c4ccccc4O)cc3)SC2)cc1` gave an IC50 of 55.9 µM (fluorescence).
